# Measurements collected from several papers.
# Protocols differ between the studies behind these lines. ± marks the error that the study gave.
# Neuronal acetylcholine receptor; alpha9/alpha10: Neuronal acetylcholine receptor; alpha9/alpha10 (Homo sapiens, UniProt Q9GZZ6+Q9UGM1)
# Sequence of UniProt Q9GZZ6 (whole entry, looked up): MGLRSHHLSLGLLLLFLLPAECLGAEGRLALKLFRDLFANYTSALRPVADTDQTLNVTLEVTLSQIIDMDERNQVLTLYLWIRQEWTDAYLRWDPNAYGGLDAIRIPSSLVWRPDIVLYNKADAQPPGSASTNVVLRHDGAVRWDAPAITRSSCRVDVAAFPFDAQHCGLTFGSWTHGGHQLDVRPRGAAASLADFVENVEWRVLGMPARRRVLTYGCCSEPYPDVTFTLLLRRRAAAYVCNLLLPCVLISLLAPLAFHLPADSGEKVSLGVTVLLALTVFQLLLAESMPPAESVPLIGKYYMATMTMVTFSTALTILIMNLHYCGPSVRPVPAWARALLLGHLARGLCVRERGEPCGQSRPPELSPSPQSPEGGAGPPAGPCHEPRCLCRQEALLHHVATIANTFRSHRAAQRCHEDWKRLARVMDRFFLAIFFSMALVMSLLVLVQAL
# Sequence of UniProt Q9UGM1 (whole entry, looked up): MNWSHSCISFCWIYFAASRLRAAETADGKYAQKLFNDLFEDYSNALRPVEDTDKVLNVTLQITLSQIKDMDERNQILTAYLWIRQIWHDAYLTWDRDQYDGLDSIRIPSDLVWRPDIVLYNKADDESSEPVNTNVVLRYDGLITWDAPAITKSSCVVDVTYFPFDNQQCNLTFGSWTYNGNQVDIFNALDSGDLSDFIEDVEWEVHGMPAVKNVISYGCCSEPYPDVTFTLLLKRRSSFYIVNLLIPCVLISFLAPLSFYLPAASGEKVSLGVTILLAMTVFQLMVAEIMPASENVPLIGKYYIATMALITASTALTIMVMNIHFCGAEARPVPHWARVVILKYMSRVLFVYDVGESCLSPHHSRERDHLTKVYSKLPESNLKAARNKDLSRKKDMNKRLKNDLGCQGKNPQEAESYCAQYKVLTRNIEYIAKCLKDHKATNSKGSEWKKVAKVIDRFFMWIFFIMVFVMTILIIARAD
# ACHE: Acetylcholinesterase (ACHE, Homo sapiens, UniProt P22303)
# Sequence of UniProt P22303 (whole entry, looked up): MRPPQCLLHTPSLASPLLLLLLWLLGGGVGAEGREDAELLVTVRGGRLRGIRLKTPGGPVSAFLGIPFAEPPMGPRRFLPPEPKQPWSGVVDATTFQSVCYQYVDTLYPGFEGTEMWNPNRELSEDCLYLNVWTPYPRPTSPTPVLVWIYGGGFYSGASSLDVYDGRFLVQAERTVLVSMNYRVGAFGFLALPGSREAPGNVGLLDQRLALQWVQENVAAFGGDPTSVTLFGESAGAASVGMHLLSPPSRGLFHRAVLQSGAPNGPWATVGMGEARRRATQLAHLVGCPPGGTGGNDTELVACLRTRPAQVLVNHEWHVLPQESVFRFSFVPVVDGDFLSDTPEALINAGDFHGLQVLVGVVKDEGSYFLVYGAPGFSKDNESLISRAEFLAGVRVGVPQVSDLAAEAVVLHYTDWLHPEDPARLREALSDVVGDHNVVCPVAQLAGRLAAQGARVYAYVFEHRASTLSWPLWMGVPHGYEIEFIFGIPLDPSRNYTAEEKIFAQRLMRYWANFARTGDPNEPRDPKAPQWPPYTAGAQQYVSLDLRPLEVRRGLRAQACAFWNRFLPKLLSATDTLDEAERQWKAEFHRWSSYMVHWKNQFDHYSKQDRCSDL
# cas9: CRISPR-associated endonuclease Cas9/Csn1 (cas9, Streptococcus pyogenes serotype M1, UniProt Q99ZW2)
# Sequence of UniProt Q99ZW2 (whole entry, looked up): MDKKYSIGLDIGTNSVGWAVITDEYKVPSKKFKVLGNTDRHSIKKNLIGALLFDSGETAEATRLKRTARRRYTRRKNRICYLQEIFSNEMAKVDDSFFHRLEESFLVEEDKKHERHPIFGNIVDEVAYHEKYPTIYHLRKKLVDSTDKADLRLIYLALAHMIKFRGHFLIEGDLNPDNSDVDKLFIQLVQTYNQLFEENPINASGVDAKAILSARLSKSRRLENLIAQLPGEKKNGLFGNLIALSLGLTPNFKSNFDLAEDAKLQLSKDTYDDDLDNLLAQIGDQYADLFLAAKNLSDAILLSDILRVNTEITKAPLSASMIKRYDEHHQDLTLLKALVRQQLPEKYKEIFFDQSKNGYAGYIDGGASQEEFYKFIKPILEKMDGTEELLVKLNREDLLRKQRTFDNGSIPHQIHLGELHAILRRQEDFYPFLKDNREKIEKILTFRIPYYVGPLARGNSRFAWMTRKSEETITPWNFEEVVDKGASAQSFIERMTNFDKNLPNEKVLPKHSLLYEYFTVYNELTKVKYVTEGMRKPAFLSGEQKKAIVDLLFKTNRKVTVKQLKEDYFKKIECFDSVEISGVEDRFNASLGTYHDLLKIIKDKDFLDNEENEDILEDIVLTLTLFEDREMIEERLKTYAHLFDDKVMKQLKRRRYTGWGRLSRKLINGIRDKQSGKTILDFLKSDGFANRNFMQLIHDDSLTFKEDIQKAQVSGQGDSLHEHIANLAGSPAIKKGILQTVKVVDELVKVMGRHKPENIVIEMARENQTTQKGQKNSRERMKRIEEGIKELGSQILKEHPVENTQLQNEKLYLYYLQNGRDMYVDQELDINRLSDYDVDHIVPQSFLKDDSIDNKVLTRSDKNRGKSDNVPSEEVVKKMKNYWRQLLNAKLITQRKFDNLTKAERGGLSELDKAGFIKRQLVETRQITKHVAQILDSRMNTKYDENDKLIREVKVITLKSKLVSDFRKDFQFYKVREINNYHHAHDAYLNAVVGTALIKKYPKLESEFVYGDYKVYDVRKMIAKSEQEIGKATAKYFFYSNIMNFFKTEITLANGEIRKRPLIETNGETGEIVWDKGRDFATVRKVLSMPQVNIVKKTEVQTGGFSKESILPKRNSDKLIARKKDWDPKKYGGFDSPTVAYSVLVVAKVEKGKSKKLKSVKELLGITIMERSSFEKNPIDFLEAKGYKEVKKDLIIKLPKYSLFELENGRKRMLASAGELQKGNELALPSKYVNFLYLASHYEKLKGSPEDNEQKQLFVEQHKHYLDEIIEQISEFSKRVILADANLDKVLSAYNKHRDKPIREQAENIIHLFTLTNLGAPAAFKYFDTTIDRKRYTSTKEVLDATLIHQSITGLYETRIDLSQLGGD
# HLA class I histocompatibility antigen, B alpha chain allele B*18:01: HLA class I histocompatibility antigen, B alpha chain, allele B*18:01 (Homo sapiens, UniProt P01889)
# HLA class I histocompatibility antigen, B alpha chain: HLA class I histocompatibility antigen, B alpha chain (Homo sapiens, UniProt P01889)
# Sequence of UniProt P31645 (whole entry, unmodified, looked up): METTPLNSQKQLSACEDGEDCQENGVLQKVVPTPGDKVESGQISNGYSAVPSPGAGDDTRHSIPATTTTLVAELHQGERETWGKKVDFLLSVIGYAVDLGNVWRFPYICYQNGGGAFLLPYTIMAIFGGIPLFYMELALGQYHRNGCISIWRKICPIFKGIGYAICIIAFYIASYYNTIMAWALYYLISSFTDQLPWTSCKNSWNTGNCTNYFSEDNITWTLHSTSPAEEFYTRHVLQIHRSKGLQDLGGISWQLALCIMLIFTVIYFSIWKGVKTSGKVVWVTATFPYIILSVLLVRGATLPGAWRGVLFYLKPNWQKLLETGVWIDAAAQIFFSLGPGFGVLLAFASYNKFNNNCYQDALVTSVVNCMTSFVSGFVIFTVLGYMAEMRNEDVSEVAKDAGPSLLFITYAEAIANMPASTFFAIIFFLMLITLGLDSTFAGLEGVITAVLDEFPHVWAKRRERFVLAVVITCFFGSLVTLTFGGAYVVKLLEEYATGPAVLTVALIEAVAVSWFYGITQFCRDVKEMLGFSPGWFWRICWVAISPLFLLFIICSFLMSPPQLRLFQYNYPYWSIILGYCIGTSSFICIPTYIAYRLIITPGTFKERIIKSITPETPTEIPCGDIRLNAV
# Sequence of UniProt P23979 (whole entry, unmodified, looked up): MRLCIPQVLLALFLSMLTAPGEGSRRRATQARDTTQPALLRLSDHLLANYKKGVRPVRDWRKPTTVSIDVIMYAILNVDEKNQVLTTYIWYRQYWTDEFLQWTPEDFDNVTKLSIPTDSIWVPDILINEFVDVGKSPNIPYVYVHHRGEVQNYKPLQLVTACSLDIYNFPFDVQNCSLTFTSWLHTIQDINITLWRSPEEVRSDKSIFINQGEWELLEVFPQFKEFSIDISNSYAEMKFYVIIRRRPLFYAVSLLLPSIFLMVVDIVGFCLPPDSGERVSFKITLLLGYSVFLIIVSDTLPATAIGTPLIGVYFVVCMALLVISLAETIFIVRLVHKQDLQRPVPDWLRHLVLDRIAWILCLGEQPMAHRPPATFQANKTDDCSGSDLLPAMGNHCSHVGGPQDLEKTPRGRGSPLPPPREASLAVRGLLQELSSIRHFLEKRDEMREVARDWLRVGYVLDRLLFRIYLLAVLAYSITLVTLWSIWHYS
# Sequence of UniProt Q53591 (whole entry, looked up): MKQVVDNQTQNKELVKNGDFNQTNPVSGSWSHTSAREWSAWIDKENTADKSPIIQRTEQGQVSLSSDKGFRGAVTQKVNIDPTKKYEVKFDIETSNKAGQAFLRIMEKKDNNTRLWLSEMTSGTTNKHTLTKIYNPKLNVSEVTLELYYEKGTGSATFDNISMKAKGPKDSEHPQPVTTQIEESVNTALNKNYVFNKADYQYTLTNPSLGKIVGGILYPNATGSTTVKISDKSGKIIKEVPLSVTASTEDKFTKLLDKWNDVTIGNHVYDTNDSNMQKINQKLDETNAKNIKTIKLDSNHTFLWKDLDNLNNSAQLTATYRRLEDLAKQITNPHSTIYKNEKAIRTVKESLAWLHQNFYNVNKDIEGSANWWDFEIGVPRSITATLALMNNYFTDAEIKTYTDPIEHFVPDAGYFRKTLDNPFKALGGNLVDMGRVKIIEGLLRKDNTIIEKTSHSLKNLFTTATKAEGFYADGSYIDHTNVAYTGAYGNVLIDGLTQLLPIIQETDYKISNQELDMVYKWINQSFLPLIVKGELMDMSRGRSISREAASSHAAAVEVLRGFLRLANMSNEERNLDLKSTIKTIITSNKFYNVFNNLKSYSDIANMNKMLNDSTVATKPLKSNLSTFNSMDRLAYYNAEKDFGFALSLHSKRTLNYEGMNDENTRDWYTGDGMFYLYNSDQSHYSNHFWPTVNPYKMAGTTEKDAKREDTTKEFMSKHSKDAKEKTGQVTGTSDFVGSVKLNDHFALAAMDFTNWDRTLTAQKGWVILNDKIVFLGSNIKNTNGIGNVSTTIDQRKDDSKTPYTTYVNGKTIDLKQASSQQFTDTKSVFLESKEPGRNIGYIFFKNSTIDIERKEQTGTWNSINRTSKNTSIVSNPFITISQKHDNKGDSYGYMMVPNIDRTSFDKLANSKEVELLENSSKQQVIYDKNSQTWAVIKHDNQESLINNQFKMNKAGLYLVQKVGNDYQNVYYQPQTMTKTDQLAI
SMILES,target,assay,system,conditions,IC50 [µM]
OCCN(CCO)c1nc(N2CCCCC2)c2nc(N(CCO)CCO)nc(N3CCCCC3)c2n1,"Beta-lactamase TEM (bla, Escherichia coli, UniProt P62593)",inhibitor,,,> 30
CNCC[C@H](Oc1cccc2ccccc12)c1cccs1,Neuronal acetylcholine receptor; alpha9/alpha10,inhibitor,,,1.08 ± 0.41
CCOP(=S)(OCC)SCSCC,ACHE,"enzyme activity, inhibitor",,,185 ± 26.8
CCC(C(=O)Nc1cc(NC2CCOCC2)ccc1C)n1cc(Br)cc2nc(SCc3ccc(F)cc3)nc1-2 (stereo not shown),"CAPN1 (Homo sapiens, UniProt P07384)",enzyme activity,,,> 100
COc1cccc2c1C(=O)c1c(O)c3c(c(O)c1C2=O)C[C@@](O)(C(=O)CO)C[C@@H]3O[C@H]1C[C@H](N)[C@@H](O)[C@H](C)O1,cas9,linear substrate,Streptococcus pyogenes,,2 to 5
COc1cccc(C2c3ccc(OS(=O)(=O)c4ccccc4)cc3Oc3nc4c(c(N)c32)CCCC4)c1 (stereo not shown),ACHE,"enzyme activity, inhibitor",,,2.46
CCCCCCCCCCCCCC1OC(=O)/C1=C\CCCCC(N)=O (stereo not shown),"Phosphatidylserine lipase ABHD16A (Homo sapiens, UniProt O95870)",,human cells,,0.2 to 0.5
CC(C)C[C@H](NC(=O)[C@@H](N)CCC(N)=O)C(=O)N[C@H](C(=O)N1CCC[C@H]1C(=O)N[C@H](C(=O)N[C@@H](Cc1c[nH]c2ccccc12)C(=O)N[C@@H](CCCNC(=N)N)C(=O)N[C@H](C(=O)N[C@@H](Cc1ccc(O)cc1)C(=O)O)C(C)C)[C@@H](C)O)[C@@H](C)O,"HLA class I histocompatibility antigen, B alpha chain allele B*18:01","peptide-MHC binding, radioligand competition binding",,,> 70
CCC(C(=O)Nc1sc(C(N)=O)c(C)c1C(=O)OC)c1ccccc1 (stereo not shown),"DNA polymerase processivity factor, with UL42 processivity factor (Human herpesvirus 1, UniProt P10226)",inhibitor,,,> 100
CCC(CC)CSc1ccccc1OC(=O)NC,"Acetylcholinesterase (Rhipicephalus microplus, UniProt O45210, W384F)",,,,0.023
COc1cc(Nc2ncc(F)c(Nc3ccc4c(n3)NC(=O)C(C)(C)O4)n2)cc(OC)c1OC,"Sodium-dependent serotonin transporter, cocaine binding site (SLC6A4, Homo sapiens, UniProt P31645)",binding,,cocaine binding site,> 10
Cc1nccn1CC1CCc2c(c3ccccc3n2C)C1=O (stereo not shown),"Htr3a (Mus musculus, UniProt P23979, W183X)",,,,0.59 ± 0.08
CCCCCCCCOc1ccccc1C(=O)Nc1ccc(C(=O)OCC[N+](C)(CC)CC)cc1,cas9,circular plasmid substrate,Streptococcus pyogenes,,100 to 200
Clc1ccc(-c2ccc(Cl)cc2Cl)cc1,"AHR (Homo sapiens, UniProt P35869)","reporter gene, antagonist",AZ-AHR cells,"24 h, added: TCDD 4.5 nM",17
CCCCCCCCCCCCCCCNC(=O)C1CCCCC1,"Hyaluronate lyase (hylB, Streptococcus agalactiae serotype III, UniProt Q53591)","enzyme activity, HILIC UPLC-MS, refers to: hyaluronan disaccharide",,,30.4 ± 9.8
COc1cccc(C2c3ccc(OCC(=O)c4ccc(Cl)cc4)cc3Oc3nc4c(c(N)c32)CCCC4)c1 (stereo not shown),ACHE,"enzyme activity, inhibitor",,,6.01
O=C(Nc1ccccc1-c1cn2c(CN3CCNCC3)csc2n1)c1cnc2ccccc2n1,cas9,circular plasmid substrate,Streptococcus pyogenes,,50 to 100
C[C@@H](NC(=O)[C@@H](N)Cc1ccc(O)cc1)C(=O)NCC(=O)N[C@@H](Cc1ccc(Cl)cc1)C(=O)N(C)CCC[C@@]1(c2ccc(F)cc2)OCc2cc(C#N)ccc21,"OPRD1 (Homo sapiens, UniProt P41143)",,,,0.00339
CCN1CCN(Cc2ccc(Nc3nc4ccc(Oc5ccnc(NC(C)=O)c5)c(C)c4n3C)cc2C(F)(F)F)CC1,"Protein kinase 6 (Plasmodium falciparum, UniProt Q8IDW1)","enzyme activity, inhibitor",,,0.3 ± 0.1
CNC(C)Cc1ccc2n[se]nc2c1 (stereo not shown),"SLC6A4 (Homo sapiens, UniProt P31645)",,,,19.1 ± 4.2
Nc1c2c(nc3c1C(c1cccc([N+](=O)[O-])c1)c1ccc(OS(=O)(=O)c4ccc(F)cc4)cc1O3)CCCC2 (stereo not shown),ACHE,"enzyme activity, inhibitor",,,0.625
C=CCSSCC=C,"uncharacterized protein (Bradysia odoriphaga, UniProt A0A2S0X9G4)","binding, competitive fluorescence displacement",,pH 7.4,10
CNCCCC12CCC(c3ccccc31)c1ccccc12,Neuronal acetylcholine receptor; alpha9/alpha10,inhibitor,,,1.43 ± 0.9
COc1cccc(N(C)C(=S)Oc2ccc3c(c2)CCCC3)n1,"Cytochrome P450 2B6 (CYP2B6, Homo sapiens, UniProt P20813)",inhibitor,,20 min,2.19
CC(=O)N1C[C@@H](CCN2CC=C(c3c[nH]c4cc(Cl)ccc34)CC2)c2ccccc21,"SLC6A4 (Homo sapiens, UniProt P31645, R104K)",,,,0.243
Nc1ccn([C@@H]2O[C@H](COP(=O)(O)OP(=O)(O)OP(=O)(O)O)[C@@H](O)[C@H]2O)c(=O)n1,"pyrG (Escherichia coli, UniProt P0A7E5, C268A)",enzyme activity,,"added: 6.0 mM glutamine, 1.0 mM ATP, 0.20 mM UTP",259 ± 42
COC(=O)C1=C(C)NC(C)=C(C(=O)OCCN(C)Cc2ccccc2)C1c1cccc([N+](=O)[O-])c1 (stereo not shown),"Bile acid receptor (NR1H4, Homo sapiens, UniProt Q96RI1)",SRC2 coactivator recruitment,,added: chenodeoxycholic acid 50 µM,1.59 ± 0.57
CC(C)C[C@H](NC(=O)[C@H](CCC(N)=O)NC(=O)[C@H](Cc1ccccc1)NC(=O)[C@H](C)NC(=O)[C@H](CCCCN)NC(=O)[C@H](CC(=O)O)NC(=O)[C@H](CCC(=O)O)NC(=O)[C@H](CC(C)C)NC(=O)[C@@H](N)CO)C(=O)O,"HLA class I histocompatibility antigen, B alpha chain","peptide-MHC binding, radioligand competition binding",,,> 70
C[C@H]1CN(c2n[nH]c3nc(N[C@H]4CC[C@H](NS(=O)(=O)CCC(F)(F)F)CC4)ncc23)CCO1,"TNF receptor-associated factor 2 (Homo sapiens, UniProt Q12933)",biochemical,,,≥ 20
CCCCCCCCc1ccc(CCC(N)(CO)CO)cc1,cas9,linear substrate,Streptococcus pyogenes,,20 to 50
CN(C)c1ccc(Nc2c3ccc(NC(=O)CCN4CCCC4)cc3nc3cc(NC(=O)CCN4CCCC4)ccc23)cc1,"Gag polyprotein, nucleocapsid protein p7 (gag, Human immunodeficiency virus type 1 group M subtype B, UniProt P04591)","NCp7-RNA binding, AlphaScreen",HIV-1,"added: 25 nM NCp7, 12.5 nM RNA",1.29
CC(C)C[C@H](NC(=O)[C@@H](N)CCC(=O)O)C(=O)N1CCC[C@H]1C(=O)N[C@@H](CC(=O)O)C(=O)N[C@@H](CCC(=O)O)C(=O)N[C@@H](Cc1ccccc1)C(=O)N[C@H](C(=O)N[C@H](C(=O)N[C@H](C(=O)O)C(C)C)C(C)C)C(C)C,"HLA class I histocompatibility antigen, B alpha chain allele B*18:01","peptide-MHC binding, radioligand competition binding",,,> 70
[O]=[V]([OH])([OH])[OH],"Uncharacterized protein (Trypanosoma brucei, UniProt Q38AT7)",,,,58
N.N.O=C([O-])C1(C(=O)[O-])CCC1.[Pt+2],cas9,circular plasmid substrate,Streptococcus pyogenes,,50 to 100
C[C@@H](O)[C@H](NC(=O)[C@H](CO)NC(=O)[C@@H]1CCCN1C(=O)[C@H](CCC(=O)O)NC(=O)[C@H](Cc1ccccc1)NC(=O)[C@H](CCC(=O)O)NC(=O)[C@@H](N)CCC(=O)O)C(=O)N[C@@H](CCC(N)=O)C(=O)N[C@@H](Cc1ccc(O)cc1)C(=O)N[C@@H](CCC(=O)O)C(=O)N[C@@H](Cc1ccc(O)cc1)C(=O)O,"HLA class I histocompatibility antigen, B alpha chain","peptide-MHC binding, radioligand competition binding",,,> 70
Nc1c2c(nc3c1C(c1ccc(Cl)c(Cl)c1)c1ccc(OCC(=O)c4ccc(Cl)cc4)cc1O3)CCCC2 (stereo not shown),ACHE,"enzyme activity, inhibitor",,,0.252
Cn1c(=O)n(CCCCN2CCC3(CC2)OCc2ccccc23)c2ccccc21,"Slc6a3 (Rattus norvegicus, UniProt P23977)","dopamine uptake, inhibitor",rat striatal synaptosomes,added: [3H]dopamine,6.01

# Repeated from above:
SMILES,target,assay,system,conditions,IC50 [µM]
N.N.O=C([O-])C1(C(=O)[O-])CCC1.[Pt+2],cas9,circular plasmid substrate,Streptococcus pyogenes,,50 to 100
COc1cccc(N(C)C(=S)Oc2ccc3c(c2)CCCC3)n1,"Cytochrome P450 2B6 (CYP2B6, Homo sapiens, UniProt P20813)",inhibitor,,20 min,2.19
CCC(C(=O)Nc1cc(NC2CCOCC2)ccc1C)n1cc(Br)cc2nc(SCc3ccc(F)cc3)nc1-2 (stereo not shown),"CAPN1 (Homo sapiens, UniProt P07384)",enzyme activity,,,> 100
COc1cccc2c1C(=O)c1c(O)c3c(c(O)c1C2=O)C[C@@](O)(C(=O)CO)C[C@@H]3O[C@H]1C[C@H](N)[C@@H](O)[C@H](C)O1,cas9,linear substrate,Streptococcus pyogenes,,2 to 5
CNC(C)Cc1ccc2n[se]nc2c1 (stereo not shown),"SLC6A4 (Homo sapiens, UniProt P31645)",,,,19.1 ± 4.2
CCCCCCCCc1ccc(CCC(N)(CO)CO)cc1,cas9,linear substrate,Streptococcus pyogenes,,20 to 50
